{"data": "Experimental data of several laboratories", "note": "Parts stem from different laboratories: compare values within a part only. Substitutions count along the parent as printed."}
{"data": "Block 1", "target": "RNA binding protein fox-1 homolog 2, RRM domain, GST-SBP tag (RBFOX2, Homo sapiens, UniProt O43251-10, residues 100-194)", "technique": "RNA Bind-n-Seq", "form": "RNA", "matrix": "in vitro", "concentration": "365 nM", "setting": "natural RNA segment, single round, ends assumed", "baseline": "no-protein control", "direction": "higher = stronger binding", "Residues (chain)": "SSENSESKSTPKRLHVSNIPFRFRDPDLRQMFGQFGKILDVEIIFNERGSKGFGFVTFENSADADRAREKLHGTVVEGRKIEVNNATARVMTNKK"}
{"Strand": "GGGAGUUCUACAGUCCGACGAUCGCCUUCCAGAUGUUCAGAUAGUCAAAGCUUCUCUCUACCUUGUUUUCCCUCAAUGCAUGUAAUUAAACACUUGUGGAAAUCGCUUUAACAAUAAACAGGAAAUGAGCCUAUGGAAUUCUCGGGUGCCAA", "RBNS enrichment (R)": 20.3}
{"Strand": "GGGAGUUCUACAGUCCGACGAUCUGAUUCCCACAGAAAACGUCCUAAGACUUCUAGUCGUCAAGAAGACCUGAAGCAUCCUUGACCUUCAUUUUGCUCAGGACUAUUCACUGUUUCCCUUCCUUGAGGAAGCCUGGAAUUCUCGGGUGCCAA", "RBNS enrichment (R)": 0.27}
{"Strand": "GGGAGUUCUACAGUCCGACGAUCAGCACUUACCAGCCGAACGUGGAACAGUAUCACAAAAGAUUCCAUCUCCCAACGAUUUCAGAACUCUGAGCUCAGAGAGACUCCAGAUUUUAAAAAAUAAUUUGAGUGCUUGGAAUUCUCGGGUGCCAA", "RBNS enrichment (R)": 0.357}
{"Strand": "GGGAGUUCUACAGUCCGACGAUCUUGGUCCUCUCCUUCCUGGAAGGCUUCCUUUUAUGUUUUGUUUUAAUCCCAAAUGUCUGAAUGUUUUGCAGUGUGUAGGGGUUUGAGCCCCUUGUUCAUUCUCCUUCCUUUGGAAUUCUCGGGUGCCAA", "RBNS enrichment (R)": 0.712}
{"Strand": "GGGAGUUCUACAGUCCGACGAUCAGUCAUGGCCUGAGAUGCAGGUGAUGCCAUUACAGAACCAAAUCGUGGCACGUAUUGCUGUGUCUCCUCUCAGAGUGACAGUCAUAAAUACUGUCAAACAAUAAAGGGAGUGGAAUUCUCGGGUGCCAA", "RBNS enrichment (R)": 0.312}
{"Strand": "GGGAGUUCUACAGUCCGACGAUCGACUGAAGCACAUGUAAUAUAGACCGUGUAUGUUUACAAUGUUGUGUAUAAAUGGGACAACUCCUCGCCCUCUACCUGUCCCCUCCCCCUUUGGUUGUAUGAUUUUCUUCUGGAAUUCUCGGGUGCCAA", "RBNS enrichment (R)": 1.22}
{"Strand": "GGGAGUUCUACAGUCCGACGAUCGUUUAUGCAACUCUAUCUUAAGAACUGCCCAGCCUCAGCUGAAAACCCGAAUCUGAGAAGGAAUUGCGUCAUGUAAGGGAAGCUGGAAUUAAGGGAGCUGAGCCAGUCAUUGGAAUUCUCGGGUGCCAA", "RBNS enrichment (R)": 0.689}
{"Strand": "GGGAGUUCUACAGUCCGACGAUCGAUGUAGCAGAAGAGAUCAUUUCUGGAGGCUUCAGCAAUGGAAUUUAGCAUUAUAAGAGAGAUUGGACAAACCAGUCCAAAGUGGUCCGAGUUCUUAAAUCCAGGUAGGGUGGAAUUCUCGGGUGCCAA", "RBNS enrichment (R)": 0.801}
{"Strand": "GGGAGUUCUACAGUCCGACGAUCAACAGUGAAGGAUUAGCUGAAAAUAUAUGAGCAGGUGACAUUGAGGUUUACUGAAAUAGCCAAUUUGACUGGUGCUUAGACUAUUGUGCAGUAAACCUAAAAGGUAGUGGUGGAAUUCUCGGGUGCCAA", "RBNS enrichment (R)": 0.51}
{"Strand": "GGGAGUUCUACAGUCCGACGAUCAGUUAAUUUAUCAACAGCCUAAAACUGUUGCCAGGUCAUCUUACAGUUUAAAACAUGCCAUCUCAUCGGUAGUCCCUGCUCUUUUCCCUCUCCCAUCUGCCAGUCUCUCUUGGAAUUCUCGGGUGCCAA", "RBNS enrichment (R)": 0.528}
{"Strand": "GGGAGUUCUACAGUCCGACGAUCCCGUCCUGCUCAUGUGGUAGGCUAGCAAUAUUUUGGUUAAAAUCAUGUUUGUGACUGUAACCAUUUGUAUGAAUUAUUUUAAAGAAAUAAAAAUCCCAGAAAGAGCCGGCUGGAAUUCUCGGGUGCCAA", "RBNS enrichment (R)": 0.457}
{"Strand": "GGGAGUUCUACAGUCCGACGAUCUACCAGUGUUGUCCAGAAGAAGCAGAGACUCAGCGCGGCUGUUGUGAGGUCUGCCUCACACCACCCACCUGCACUGCUCUCGCCUAACUGUGGACGCCGGGCACUGUUGGUGGAAUUCUCGGGUGCCAA", "RBNS enrichment (R)": 0.264}
{"data": "Block 2", "target": "CCNE1, cyclin fold, Cln2 fusion (human)", "technique": "yeast growth competition, sequencing", "matrix": "yeast", "setting": "strong parent motif", "baseline": "not given", "direction": "higher = stronger binding", "parent": "PKN2 docking peptide (human); VSAVRKLDFSDTM; partner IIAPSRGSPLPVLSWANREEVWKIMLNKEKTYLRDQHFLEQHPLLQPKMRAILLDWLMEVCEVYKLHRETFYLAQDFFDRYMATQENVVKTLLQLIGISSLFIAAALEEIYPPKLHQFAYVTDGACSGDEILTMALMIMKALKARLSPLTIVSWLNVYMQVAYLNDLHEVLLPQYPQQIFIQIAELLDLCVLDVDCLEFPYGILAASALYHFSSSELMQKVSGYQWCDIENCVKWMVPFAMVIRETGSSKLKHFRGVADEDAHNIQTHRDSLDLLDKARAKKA"}
{"Variant": "VSAVIKLDFSDTM [R5I]", "normalised enrichment score": 0.753}
{"Variant": "VMAVRKLDFSDTM [S2M]", "normalised enrichment score": 4.48}
{"Variant": "VSAVRKLAFSDTM [D8A]", "normalised enrichment score": 2.85}
{"Variant": "VSAVRKLDFSETM [D11E]", "normalised enrichment score": 5.32}
{"Variant": "VSAVRKLYFSDTM [D8Y]", "normalised enrichment score": 4.71}
{"Variant": "VSAVWKLDFSDTM [R5W]", "normalised enrichment score": 0.394}
{"Variant": "VIAVRKLDFSDTM [S2I]", "normalised enrichment score": 3.72}
{"Variant": "VGAVRKLDFSDTM [S2G]", "normalised enrichment score": 5.8}
{"Variant": "VSAVPKLDFSDTM [R5P]", "normalised enrichment score": 0.399}
{"Variant": "VSAVHKLDFSDTM [R5H]", "normalised enrichment score": 0.246}
{"data": "Block 3", "Molecule": "PhoQ, residues 284 288 289 292 302 303 TLASMF", "technique": "Sort-seq", "refers to": "YFP reporter", "matrix": "E. coli", "setting": "PhoQ-PhoP variant library", "together with": "10 µM Mg2+", "baseline": "high Mg2+ state", "direction": "higher = stronger signaling"}
{"target": "PhoP, residues 12 14 15 18 19 TPWTL (Escherichia coli, UniProt P23836)", "fold induction": 4.25}
{"target": "PhoP, residues 12 14 15 18 19 NFFVT (Escherichia coli, UniProt P23836)", "fold induction": 3.02}
{"target": "PhoP, residues 12 14 15 18 19 VGHWL (Escherichia coli, UniProt P23836)", "fold induction": 0.959}
{"target": "PhoP, residues 12 14 15 18 19 LHHYF (Escherichia coli, UniProt P23836)", "fold induction": 15.6}
{"data": "Block 4", "target": "Histone acetyltransferase KAT6A, winged helix 1, GST fusion (KAT6A, Homo sapiens, UniProt Q92794, residues 1-85)", "technique": "protein binding microarray", "form": "double-stranded DNA, one strand shown", "matrix": "in vitro", "concentration": "not given", "setting": "8-mer, flanks averaged, mean of 2 arrays, mostly near background", "baseline": "not given", "direction": "higher = stronger binding", "Target sequence (chain)": "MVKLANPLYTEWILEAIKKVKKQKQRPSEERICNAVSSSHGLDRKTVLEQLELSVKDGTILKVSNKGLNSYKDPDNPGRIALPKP"}
{"Strand": "AGAAACAT", "E-score": -0.0276}
{"Strand": "ACGGCTAG", "E-score": 0.361}
{"Strand": "ACCGCTCC", "E-score": 0.222}
{"Strand": "AACTTAAC", "E-score": -0.118}
{"Strand": "ATCATAAA", "E-score": -0.222}
{"Strand": "CGCAGTTA", "E-score": 0.15}
{"Strand": "ATTTCACG", "E-score": 0.137}
{"Strand": "AACGCAGG", "E-score": 0.0782}
{"Strand": "CCCGTACC", "E-score": 0.313}
{"Strand": "GAAACGAC", "E-score": -0.0598}
{"Strand": "CCCCCTGC", "E-score": 0.0362}
{"Strand": "CCCTGCGG", "E-score": 0.122}
{"Strand": "CCCAGTTC", "E-score": -0.248}
{"Strand": "GGTATTTA", "E-score": -0.00374}
{"note": "Repeated from above (block 1):"}
{"Strand": "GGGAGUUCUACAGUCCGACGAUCAGUCAUGGCCUGAGAUGCAGGUGAUGCCAUUACAGAACCAAAUCGUGGCACGUAUUGCUGUGUCUCCUCUCAGAGUGACAGUCAUAAAUACUGUCAAACAAUAAAGGGAGUGGAAUUCUCGGGUGCCAA", "RBNS enrichment (R)": 0.312}
{"Strand": "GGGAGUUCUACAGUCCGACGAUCGACUGAAGCACAUGUAAUAUAGACCGUGUAUGUUUACAAUGUUGUGUAUAAAUGGGACAACUCCUCGCCCUCUACCUGUCCCCUCCCCCUUUGGUUGUAUGAUUUUCUUCUGGAAUUCUCGGGUGCCAA", "RBNS enrichment (R)": 1.22}
{"Strand": "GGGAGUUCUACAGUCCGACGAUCGUUUAUGCAACUCUAUCUUAAGAACUGCCCAGCCUCAGCUGAAAACCCGAAUCUGAGAAGGAAUUGCGUCAUGUAAGGGAAGCUGGAAUUAAGGGAGCUGAGCCAGUCAUUGGAAUUCUCGGGUGCCAA", "RBNS enrichment (R)": 0.689}
{"Strand": "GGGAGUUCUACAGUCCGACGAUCGAUGUAGCAGAAGAGAUCAUUUCUGGAGGCUUCAGCAAUGGAAUUUAGCAUUAUAAGAGAGAUUGGACAAACCAGUCCAAAGUGGUCCGAGUUCUUAAAUCCAGGUAGGGUGGAAUUCUCGGGUGCCAA", "RBNS enrichment (R)": 0.801}
{"Strand": "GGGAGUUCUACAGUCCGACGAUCAACAGUGAAGGAUUAGCUGAAAAUAUAUGAGCAGGUGACAUUGAGGUUUACUGAAAUAGCCAAUUUGACUGGUGCUUAGACUAUUGUGCAGUAAACCUAAAAGGUAGUGGUGGAAUUCUCGGGUGCCAA", "RBNS enrichment (R)": 0.51}
